# Published values gathered from unrelated publications.
# Every numbered part comes from another study and shows a few of its results, in no order. Changes are numbered by the printed parent chain.

# Series 1 — technique: RNA Bind-n-Seq; molecule type: RNA; sample: in vitro; tested at: 200 nM; setting: whole 134-nt RNA, ends assumed; with: 150 mM KCl; baseline: input library; reading: higher = stronger binding
# Target: Ras GTPase-activating protein-binding protein 1, full length (G3BP1, Homo sapiens, UniProt Q13283)
# UniProt Q13283, sequence (whole entry, looked up): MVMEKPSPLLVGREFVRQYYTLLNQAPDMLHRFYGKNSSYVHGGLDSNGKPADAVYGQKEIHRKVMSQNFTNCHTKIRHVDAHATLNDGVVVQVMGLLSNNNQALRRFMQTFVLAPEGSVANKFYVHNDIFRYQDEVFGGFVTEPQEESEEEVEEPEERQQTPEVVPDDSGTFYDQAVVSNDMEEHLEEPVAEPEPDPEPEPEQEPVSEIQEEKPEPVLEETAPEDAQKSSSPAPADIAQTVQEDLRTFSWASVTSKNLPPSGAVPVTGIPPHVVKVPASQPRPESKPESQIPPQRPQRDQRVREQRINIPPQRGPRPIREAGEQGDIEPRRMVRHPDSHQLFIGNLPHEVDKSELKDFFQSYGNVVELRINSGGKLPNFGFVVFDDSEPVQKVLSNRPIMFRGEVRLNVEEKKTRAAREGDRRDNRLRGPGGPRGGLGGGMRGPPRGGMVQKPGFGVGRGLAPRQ
# Constant ends, left off below: GGGAGUUCUACAGUCCGACGAUC … UGGAAUUCUCGGGUGUCAAGG
Sequence,log2 enrichment
CCUCAAGUCCUGUGCUACACAUCGUAUGUACCGAAUCGGUGGGGUGGGUGGGAAAGUAUUAUGUUACGCCGUUCGGAUCUGCACUUCCAG,1.13
UGGCCCUGGUGGCAUGCGGGGAGGAAGAGGUGGCCUCAUGGAUCGUGGUUGUCCCGGUGGAAUGUUCAGAGGUGGCCGUGGUGGAGACAG,0.226
AGUCCUGUGCUACACAUCGUAUGUACCGAAUCGGGUUUUUUUGGGAAAGGGUUUGGGAAAGUAUUAUGUUACGCCGUUCGGAUCUGCACU,-0.178
UGGCACUGGUGGCAUGCGGGGAGGAAGAGGUGGCCUCAUGGAUCGUGGUGGUCCCGGUGGAAUGUUCAGAGGUGGCCGUGGUGGAGACAG,0.481
AGUCCUGUGCUACACAUCGUAUGUACCGAAUCGGGUGGGAAAAAAAGGGUUUUUGGGAAAGUAUUAUGUUACGCCGUUCGGAUCUGCACU,-0.212
CUCAAGUCCUGUGCUACACAUCGUAUGUACCGAAUCGGGGAAGGAAGGAAGGGGAAAGUAUUAUGUUACGCCGUUCGGAUCUGCACUUCC,-0.261
ACCAUGCAGGUGGGCAUAAAUGGGAAGUGGGGCAAGGGGGGGAUAGGGAGGGGGGUAACACUUUGGGAACAGGUGGUCCCAGGUCGUUUC,1.05
UGGGAGGUGGAUUUUGUUUAUUUUUGUAGCUCAUUUCCAGGGGUGGGAAUUUUUUUUUAAUAUGUGUCAUGAAUAAAGUUGUUUUUGAAA,0.213

# Series 2 — target: CCNB3, cyclin fold, Cln2 fusion (human); technique: yeast growth competition, sequencing; sample: yeast; setting: strong parent motif; baseline: not given; reading: higher = stronger binding
# Parent: viral docking peptide; KGVKRKLFAEDSS; partner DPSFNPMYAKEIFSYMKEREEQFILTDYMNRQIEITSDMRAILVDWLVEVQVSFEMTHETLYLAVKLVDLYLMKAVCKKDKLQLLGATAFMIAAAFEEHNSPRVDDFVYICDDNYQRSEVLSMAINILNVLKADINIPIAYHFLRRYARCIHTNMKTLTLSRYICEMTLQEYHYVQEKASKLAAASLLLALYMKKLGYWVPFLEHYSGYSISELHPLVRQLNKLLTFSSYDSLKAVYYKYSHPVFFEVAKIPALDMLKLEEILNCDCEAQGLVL
Substitution,normalised enrichment score
A9H,2.2
K4M,0.636
L7F,0.21

# Series 3 — technique: protein binding microarray; molecule type: double-stranded DNA, one strand shown; sample: in vitro; tested at: not given; baseline: not given; reading: higher = stronger binding
# Target: Histone acetyltransferase KAT6A, both winged helices, GST fusion (KAT6A, Homo sapiens, UniProt Q92794, residues 1-181)
# Setting: 8-mer, flanks averaged, mean of 2 arrays, mostly near background
# Residues (chain): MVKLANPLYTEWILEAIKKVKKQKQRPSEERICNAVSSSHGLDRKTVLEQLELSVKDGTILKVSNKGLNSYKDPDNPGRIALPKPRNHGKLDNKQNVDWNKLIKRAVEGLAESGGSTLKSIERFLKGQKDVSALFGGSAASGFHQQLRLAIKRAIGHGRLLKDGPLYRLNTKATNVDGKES
Sequence,E-score
ACCAAGAT,-0.127
CTCTTAAA,-0.248
AGGTCACT,-0.178
TAATGGCA,0.00812
AGTTACGA,-0.105
CGTACGAC,0.0003
AACCAGCT,-0.268
AGCTCTTC,-0.0622

# Mixed results
# P1: PafA, mature enzyme, eGFP fusion (Elizabethkingia meningoseptica, UniProt Q9KJX5); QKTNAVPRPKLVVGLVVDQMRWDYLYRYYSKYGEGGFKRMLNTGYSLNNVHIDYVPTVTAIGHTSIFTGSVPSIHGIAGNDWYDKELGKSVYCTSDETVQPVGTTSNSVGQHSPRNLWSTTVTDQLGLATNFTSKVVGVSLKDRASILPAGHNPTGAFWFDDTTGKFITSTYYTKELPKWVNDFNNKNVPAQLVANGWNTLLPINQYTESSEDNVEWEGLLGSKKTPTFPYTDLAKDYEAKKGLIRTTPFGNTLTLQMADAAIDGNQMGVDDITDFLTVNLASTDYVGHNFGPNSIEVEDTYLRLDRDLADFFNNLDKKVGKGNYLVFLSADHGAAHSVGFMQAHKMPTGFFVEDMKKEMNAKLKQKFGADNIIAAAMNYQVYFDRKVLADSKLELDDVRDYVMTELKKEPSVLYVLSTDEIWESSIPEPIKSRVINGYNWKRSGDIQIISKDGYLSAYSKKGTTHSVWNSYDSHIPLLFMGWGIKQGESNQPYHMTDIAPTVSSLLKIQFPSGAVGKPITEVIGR
Molecule,tested on,assay,test system,setting,how to read,endpoint,value
P1 Y92G,"inorganic phosphate, free oxyanion",microfluidic competitive inhibition,"in vitro, cell-free expressed","not given, derived from inhibition constants, unchanged parent 615000 nM",lower = stronger binding,phosphate dissociation constant,2.24 mM
"HMGA1 (Homo sapiens, UniProt P17096)","H2BC5 (Homo sapiens, UniProt P58876)",cross-linking MS,,hits only,,interaction screen,cross-linked
